Literature values, collected from citations in different studies.
Each line is one published result; not all experiments were run side by side. Values joined by “and” are separate records of one study, mostly repeats; a detail may differ. ± marks the error that the study gave.

c1ccc2c(c1)CCCNC2c1c[nH]c2ncccc12 (centres unmarked) — IC50 (COLO 205; cytotoxicity): 79600 nM and 50000 to 80000 nM
CCC(=C(c1ccc(O)cc1)c1ccc(O)cc1)[c-]1cccc1.[Fe+2].c1cc[cH-]c1 — GI50 (NCI60 human tumour cell panel; cell growth; mean-graph midpoint): 520 nM
O=c1ccc(OCCCN2CCCCC2)nn1-c1ccc(Cl)c(Cl)c1 — inhibition (adrenergic α1 receptor; 1.0 µM): 15.3 ± 1.2%
CCOC(=O)[C@H]1c2c(ccc3ccccc23)O[C@@H]2c3ccsc3CCN21 — relative fluorescence index (Staphylococcus aureus; efflux pump inhibition; ATCC 25923; 50 µM; baseline: untreated cells): 0.06
O=S(=O)(c1ccc(-c2ccc3ncnc(Nc4ccc(OCc5cccc(F)c5)c(Cl)c4)c3c2)cc1)N1CCSCC1 — EC50 (Trypanosoma brucei; parasite growth): 470 nM
c1ccc2c(c1)CCNC2c1c[nH]c2cccnc12 (centres unmarked) — relative fluorescence index (Escherichia coli; efflux pump inhibition; AG100A AcrAB-TolC deleted; 50 µM; baseline: untreated cells): 0.66
Cc1sc(-c2ccc(C(F)(F)F)cc2)nc1-c1nn[nH]c1C#N — HbA1c change from baseline (ZDF rat; 1 mg/kg/day, 6 weeks): 3.33 ± 0.13%
CCCCNc1ccc(C(=O)C=C(O)C(F)(F)C(F)(F)F)cn1 — IC50 (Plasmodium falciparum formate-nitrite transporter; L-lactate transport, inhibitor, radiolabelled uptake; yeast): 330 ± 10 nM
CS(=O)(=O)Nc1ccc(-c2cncc(-c3cccc4cc[nH]c34)c2)cc1 — remaining activity (TNNI3K; 1 µM): < 30%
CN1CCN(Cc2cccc(CC(O)Cn3c4ccccc4c4ccccc43)c2)CC1 (centres unmarked) — IC50 (Plasmodium; parasite growth): 994 nM
COc1ccc(Nc2nc(Nc3ccc(OCC[18F])cc3)ncc2Br)cc1 — tissue uptake (S180 tumour-bearing mice, muscle; intravenous, 60 min): 1.97 ± 0.25 %ID/g
c1ccc2c(C3NCCc4sccc43)c[nH]c2c1 (centres unmarked) — IC50 (MRC-5 fibroblasts; cytotoxicity): > 100000 nM
COc1ccc(Nc2ncnc3ccc(-c4ccc(S(=O)(=O)N5CCOCC5)cc4)cc23)cc1Cl — EC50 (Trypanosoma brucei; parasite growth): 820 nM
COc1cc2c(cc1OC)C(c1c[nH]c3ccccc13)NCC2 (centres unmarked) — relative fluorescence index (Escherichia coli; efflux pump inhibition; AG100 AcrAB-TolC expressing; 50 µM; baseline: untreated cells): 0.33
CN1CCN(S(=O)(=O)c2cccc(-c3ccc4ncnc(Nc5ccc(OCc6cccc(F)c6)c(Cl)c5)c4c3)c2)CC1 — EC50 (Trypanosoma brucei; parasite growth): 3300 nM
CCOC(=O)[C@H]1c2ccc3ccccc3c2O[C@@H]2c3ccccc3CCN21 — relative fluorescence index (Staphylococcus aureus; efflux pump inhibition; ATCC 25923; 100 µM; baseline: untreated cells): 0.55
C[S+]([O-])c1ccc(Nc2nc(OCC3CCCCC3)c3nc[nH]c3n2)cc1 (centres unmarked) — binding free energy (JNK1; more negative = stronger binding): -9.14 kcal/mol
O=S(=O)(c1ccc(-c2ccc3ncnc(Nc4ccc(OCc5ccccc5F)c(Cl)c4)c3c2)cc1)N1CCOCC1 — EC50 (Trypanosoma brucei; parasite growth): 1700 nM
CC[C@H](C)[C@H](NC(=O)[C@H](CC(C)C)NC(=O)[C@H](Cc1c[nH]cn1)NC(=O)[C@H](Cc1c[nH]cn1)NC(=O)[C@H](CC(C)C)NC(=O)[C@H](Cc1c[nH]c2ccccc12)NC(=O)[C@H](Cc1ccccc1)NC(=O)[C@H](CCCNC(=N)N)NC(=O)[C@H](CCCNC(=N)N)NC(=O)[C@H](CCCNC(=N)N)NC(=O)[C@H](CC(C)C)NC(=O)[C@H](CC(=O)O)NC(=O)[C@H](CCC(N)=O)NC(=O)[C@@H](NC(=O)[C@H](CO)NC(=O)[C@H](CCCCN)NC(=O)[C@@H](Cc1c[nH]c2ccccc12)NC(=O)[C@H](CC(C)C)NC(=O)[C@H](CC(=O)O)NC(=O)[C@H](Cc1c[nH]cn1)NC(=O)[C@H](CC(C)C)NC(=O)[C@@H](N)CC(C)C)[C@@H](C)CC)C(=O)N[C@@H](C)C(=O)N[C@@H](CCC(=O)O)C(=O)N[C@H](C(=O)N[C@@H](Cc1c[nH]cn1)C(=O)N[C@H](C(=O)N[C@@H](C)C(=O)N[C@@H](CCC(=O)O)C(=O)N[C@@H](Cc1ccc(O)cc1)C(N)=O)[C@@H](C)O)[C@@H](C)CC — trabecular bone mass (mouse; 500 nmol/kg twice daily, 14 days): decreased
O=C1c2ccc3c4ccc5c6c(ccc(c7ccc(c2c37)C(=O)N1CCN1CCCCC1)c64)C(=O)N(CCN1CCCCC1)C5=O — effective concentration (LNCaP; telomere shortening; long-term treatment): 1 µM
O=C(c1ccc(-c2ccc3ncnc(Nc4ccc(OCc5cccc(F)c5)c(Cl)c4)c3c2)cc1)N1CCCCC1 — EC50 (Trypanosoma brucei; parasite growth): 940 nM
FC(F)(F)c1ccccc1-c1nc(NCc2cccs2)c2ccccc2n1 — remaining activity (all other kinases; inhibitor; 10 µM; baseline: control): > 47%
Fc1cccc(COc2ccc(Nc3ncnc4ccc(-c5ccccc5)cc34)cc2Cl)c1 — EC50 (Trypanosoma brucei; parasite growth): 3900 nM
c1ccc2c(c1)CCCNC2c1c[nH]c2ccccc12 (centres unmarked) — IC50 (COLO 205; cytotoxicity): 97800 nM
N#Cc1ccnc(N2C(=O)CC[C@H]2C(=O)N(c2cncc(F)c2)[C@H](C(=O)NC2CC(F)(F)C2)c2ccccc2Cl)c1 — complete response rate (relapsed/refractory mIDH1 AML patients; dose not given, trial, interim): 22%
CS(=O)(=O)c1ccc(-c2ccc3ncnc(Nc4ccc(OCc5cccc(F)c5)c(Cl)c4)c3c2)cc1 — EC50 (Trypanosoma brucei; parasite growth): 900 nM

For quick reference, copied from above:
O=S(=O)(c1ccc(-c2ccc3ncnc(Nc4ccc(OCc5ccccc5F)c(Cl)c4)c3c2)cc1)N1CCOCC1 — EC50 (Trypanosoma brucei; parasite growth): 1700 nM
CC[C@H](C)[C@H](NC(=O)[C@H](CC(C)C)NC(=O)[C@H](Cc1c[nH]cn1)NC(=O)[C@H](Cc1c[nH]cn1)NC(=O)[C@H](CC(C)C)NC(=O)[C@H](Cc1c[nH]c2ccccc12)NC(=O)[C@H](Cc1ccccc1)NC(=O)[C@H](CCCNC(=N)N)NC(=O)[C@H](CCCNC(=N)N)NC(=O)[C@H](CCCNC(=N)N)NC(=O)[C@H](CC(C)C)NC(=O)[C@H](CC(=O)O)NC(=O)[C@H](CCC(N)=O)NC(=O)[C@@H](NC(=O)[C@H](CO)NC(=O)[C@H](CCCCN)NC(=O)[C@@H](Cc1c[nH]c2ccccc12)NC(=O)[C@H](CC(C)C)NC(=O)[C@H](CC(=O)O)NC(=O)[C@H](Cc1c[nH]cn1)NC(=O)[C@H](CC(C)C)NC(=O)[C@@H](N)CC(C)C)[C@@H](C)CC)C(=O)N[C@@H](C)C(=O)N[C@@H](CCC(=O)O)C(=O)N[C@H](C(=O)N[C@@H](Cc1c[nH]cn1)C(=O)N[C@H](C(=O)N[C@@H](C)C(=O)N[C@@H](CCC(=O)O)C(=O)N[C@@H](Cc1ccc(O)cc1)C(N)=O)[C@@H](C)O)[C@@H](C)CC — trabecular bone mass (mouse; 500 nmol/kg twice daily, 14 days): decreased
O=C1c2ccc3c4ccc5c6c(ccc(c7ccc(c2c37)C(=O)N1CCN1CCCCC1)c64)C(=O)N(CCN1CCCCC1)C5=O — effective concentration (LNCaP; telomere shortening; long-term treatment): 1 µM
